Results gathered from unrelated publications.
Compare with care: the assays were run in different laboratories. ± marks the error that the study gave.

Compound	assay	test system	conditions	endpoint	value
CC(=O)Oc1ccccc1C(=O)O		human, both sexes, plasma	oral, 650 mg, geometric mean, together with: alcohol	t1/2	0.57 h
Cl.[2H]C([2H])([2H])CC(=O)c1cnc(NC(=O)C2CC2)cc1Nc1cccc(-c2ncn(C([2H])([2H])[2H])n2)c1OC		human, fasted, plasma	oral, 25 mg, single dose, liquid formulation	t1/2	7.6 h
O=C(/C=C/CN1CCCCC1)Nc1cc2c(Nc3ccc(F)c(Cl)c3)ncnc2cc1O		human, plasma	oral, 30 mg	t1/2	63.5 h
CCCOc1ccc(NC(=O)CN2CCN(C)CC2)cc1-c1nc(CC)c(CC)c(=O)[nH]1		human, fasting, plasma	oral, 10 mg, together with: placebo	t1/2	9.72 ± 2.17 h
Nc1ccc(S(=O)(=O)Nc2ccccn2)cc1		human	oral, 1000 mg, day 1, sulfasalazine alone	t1/2	12.2 h
Cc1cc(C)c(CNC(=O)c2cc(Cl)c3c(c2C)O[C@@](C)([C@H]2CC[C@H](N(C)C)CC2)O3)c(=O)[nH]1	refers to: total radioactivity	human, male, plasma	oral, 200 mg, [14C]-labelled, mean	t1/2	17.2 h
N#CCC1CCN(c2nc(Nc3ccc(N4CCC(O)CC4)cc3)c3c(=O)[nH]ncc3n2)CC1		human, plasma	oral, 80 mg once daily, day 15	t1/2	14.1 h
CC[C@H](Nc1ncnc2[nH]cnc12)c1oc2ccccc2c(=O)c1-c1cccc(F)c1		human, plasma	oral, 800 mg twice daily, together with: romidepsin 14 mg/m2	t1/2	21 ± 24.2 h
NC(=S)NN=Cc1ncccc1N		human, plasma	intravenous, 50 mg, geometric mean	t1/2	1.3 h
C[C@@H](Nc1cc(F)cc(F)c1)c1cc(C(=O)N(C)C)cc2c(=O)cc(N3CCOCC3)oc12		human, plasma	oral, 360 mg, day 1 single dose	t1/2 geometric mean	4.63 h

Excerpt of the above:
Compound	assay	test system	conditions	endpoint	value
Cc1cc(C)c(CNC(=O)c2cc(Cl)c3c(c2C)O[C@@](C)([C@H]2CC[C@H](N(C)C)CC2)O3)c(=O)[nH]1	refers to: total radioactivity	human, male, plasma	oral, 200 mg, [14C]-labelled, mean	t1/2	17.2 h
